Earlier results as cited in several papers.
Protocols differ between the studies behind these lines. “And” joins repeats or separate records; there may be more than shown. ± marks the error that the study gave.
Chain of UniProt P9WPP7 (whole entry, looked up): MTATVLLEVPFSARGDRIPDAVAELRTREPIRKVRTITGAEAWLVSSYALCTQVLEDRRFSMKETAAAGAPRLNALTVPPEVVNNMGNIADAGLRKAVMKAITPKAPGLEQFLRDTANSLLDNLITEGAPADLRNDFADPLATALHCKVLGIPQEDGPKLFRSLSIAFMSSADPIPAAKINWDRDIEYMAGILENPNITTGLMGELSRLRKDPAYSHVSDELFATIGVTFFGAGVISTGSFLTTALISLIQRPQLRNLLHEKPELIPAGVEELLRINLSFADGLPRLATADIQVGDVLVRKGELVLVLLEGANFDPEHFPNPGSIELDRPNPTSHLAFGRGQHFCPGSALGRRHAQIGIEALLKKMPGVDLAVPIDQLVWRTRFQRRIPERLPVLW

O=C(Oc1cccnc1)c1ccco1
inhibition (Replicase polyprotein 1ab, main protease (rep, Severe acute respiratory syndrome-related coronavirus, UniProt P0C6X7); 100 µM): 91%

Cc1cc(C(=O)N[C@@H](C)C(=O)N[C@H](C(=O)N[C@@H](CC(C)C)C(=O)N[C@H](/C=C/C(=O)OCc2ccccc2)C[C@@H]2CCNC2=O)C(C)C)no1
EC50 (SARS-CoV-2; viral replication): 16.8 µM

O=C(Oc1cncc(Cl)c1)c1cccc2[nH]ccc12
IC50 (SARS-CoV 3C-like protease; enzyme activity): 0.03 µM

O=c1c(O)c(-c2cc(O)c(O)c(O)c2)oc2cc(O)cc(O)c12
inhibition (SARS-CoV-2; cytopathic effect; Caco-2; 10 µM): -2.9%

O=C(NCc1ccc(F)cc1F)c1cn2ccn(CCCCCCO)c(=O)c2c(O)c1=O
EC50 (HIV-1 integrase S230N; viral replication; HIV-1; single-round vector): 0.0093 ± 0.0019 µM

Clc1ccc(CN2CCCC3=CC4CC(CN5CCCCC45)C32)cc1Cl (centres unmarked)
EC50 (Ebola virus; viral infection): 4.8 µM

O=C(NCc1ccc(F)cc1F)c1cn2ccn(CCCCO)c(=O)c2c(O)c1=O
EC50 (HIV-1 integrase S230N; viral replication; HIV-1; single-round vector): 0.0307 µM and > 0.03 µM

c1cn(Cc2ccc(-c3ccc4c(c3)OCO4)cc2)cn1
Kd (Mycocyclosin synthase (cyp121, Mycobacterium tuberculosis, UniProt P9WPP7); binding): 5 µM and 5.4 µM

Repeated from above:
O=C(Oc1cncc(Cl)c1)c1cccc2[nH]ccc12
IC50 (SARS-CoV 3C-like protease; enzyme activity): 0.03 µM
